# Assay results gathered from unrelated publications.
# Every numbered part comes from another study and shows a few of its results, in no order. Positions count from the first letter of the parent shown.
# UniProt P62837, sequence (whole entry, looked up): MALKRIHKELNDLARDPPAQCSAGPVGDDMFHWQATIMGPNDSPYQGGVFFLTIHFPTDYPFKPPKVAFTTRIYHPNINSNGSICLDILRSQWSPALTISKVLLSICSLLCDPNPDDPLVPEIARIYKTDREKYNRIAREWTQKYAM

# Sample 1
# Target: TAR DNA-binding protein 43, full length, His tag (TARDBP, Homo sapiens, UniProt Q13148, residues 1-414)
# Technique: RNA Bind-n-Seq
# Form: RNA
# Medium: in vitro
# Concentration: 20 nM
# Setting: 6-mer, flanks averaged, single round
# Added: 150 mM KCl
# Relative to: input library
# Reading: higher = stronger binding
Strand,6-mer enrichment (R)
CAUUAG,0.628
CGCUAG,0.83
GACCUA,0.678
CAUCGC,0.637
AAGCAG,0.909
CCCGUA,0.631
GGCUAA,1.04
AGCCCC,0.685

# Sample 2
# Target: CEBPD, bZIP domain (human)
# Technique: DHFR protein complementation
# Medium: yeast
# Setting: single substitutions, most at no-binding floor
# Relative to: wild-type JUN-FOS pair
# Reading: higher = stronger binding
# Starting sequence: JUN, bZIP domain (human); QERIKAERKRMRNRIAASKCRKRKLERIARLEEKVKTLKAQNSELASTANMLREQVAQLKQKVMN; partner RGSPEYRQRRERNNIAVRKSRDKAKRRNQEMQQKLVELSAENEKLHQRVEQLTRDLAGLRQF
Change,binding fitness
T37I,-1.39 natural log
A29M,-1.38 natural log
L38D,-1.49 natural log
T37N,-1.31 natural log
V35L,-1.25 natural log
T48A,-1.36 natural log
Q41I,-1.12 natural log
A46N,-1.38 natural log

# Mixed results
Molecule,target,test,system,conditions,scale,measurement,result
DAIPSLSECQCGICMEILVEPVTLPCNHTLCKPCFQSTVEKASLCCPFCRRRVSSWTRYH (RNF168 RING domain (UniProt Q8IYW5)),UBE2D2 UBC core domain (UniProt P62837),yeast two-hybrid,yeast,mostly zero background,"relative to: not given, higher = stronger interaction",lacZ reporter activity,0
LFNTVAVLY,"HLA class I histocompatibility antigen, A alpha chain, allele A*26:03 (Homo sapiens, UniProt P04439)",peptide-MHC binding,peptide,concentration not given,,binding,inactive

# Some of these lines once more (sample 1):
Strand,6-mer enrichment (R)
CCCGUA,0.631
GGCUAA,1.04
